Assay results gathered from unrelated publications.
Protocols differ between the studies behind these lines. ± marks the error that the study gave.
Nicotinic acetylcholine receptor alpha9/alpha10: Nicotinic acetylcholine receptor alpha9/alpha10 (Rattus norvegicus, UniProt P43144+Q9JLB5)

CN(C)C(=O)C(CCN1CCC(O)(c2ccc(Cl)cc2)CC1)(c1ccccc1)c1ccccc1
Hill coefficient (Calcium-activated potassium channel subunit alpha-1, with LRRC26 γ1 subunit (KCNMA1, Homo sapiens, UniProt Q12791); BK channel conductance, inside-out patch clamp; BKα/γ1, Vm 20 mV, nominally Ca2+-free): 0.945 ± 0.22

N=C(N)NC(=N)Nc1cccc(Cl)c1
Hill coefficient (5-hydroxytryptamine receptor 3A (Htr3a, Mus musculus, UniProt P23979); agonist-evoked current, agonist, two-electrode voltage clamp; Xenopus oocytes; wild-type receptor): 2.2 ± 0.1

O=C1Nc2c(ccc(Cl)c2Cl)C1=NO
Hill coefficient (KCNN4/CALM1 (Homo sapiens, UniProt O15554+P0DP23, L185A/S181A); activator, whole-cell patch clamp; HEK293 (S181A-L185A mutant)): 1.6

N#Cc1ccc2[nH]cc(CCCCN3CCN(c4ccc5oc(C(N)=O)cc5c4)CC3)c2c1
Hill coefficient (Sodium-dependent serotonin transporter (SLC6A4, Homo sapiens, UniProt P31645, A169I); [3H]5-HT uptake, inhibitor; COS-7): 1.27 ± 0.23

O=C(Nc1cccc2c(=O)cc(-c3nnn[nH]3)oc12)c1ccc(OCCCCc2ccccc2)cc1
Hill coefficient (LRRC8A/LRRC8C (Homo sapiens, UniProt Q8IWT6+Q8TDW0); ion current, inhibitor, whole-cell patch clamp; HCT116 LRRC8 knockout, transfected; -100 mV, LRRC8A/LRRC8C heteromer): 0.74

[Ca]
Hill coefficient (KCNN4/CALM1 (Homo sapiens, UniProt O15554+P0DP23); activator, inside-out patch clamp): 2.9

Cc1ccc(N(C)C(=O)/C=C/c2ccco2)cc1
Hill coefficient (Nicotinic acetylcholine receptor alpha9/alpha10; inhibitor; together with: ACh 100 µM): 1.6 ± 0.2

COc1cc(C(=O)NS(=O)(=O)c2ccccc2C)ccc1Cc1cn(C)c2ccc(NC(=O)OC3CCCC3)cc12
Hill coefficient (LRRC8A/LRRC8C (Homo sapiens, UniProt Q8IWT6+Q8TDW0, L134K/L136K); whole-cell patch clamp; HCT116 LRRC8-/- transfected; at +100 mV): 0.99

Cc1nccn1CC1CCc2c(c3ccccc3n2C)C1=O (stereo not drawn)
Hill coefficient (5-hydroxytryptamine receptor 3A (Htr3a, Mus musculus, UniProt P23979, W183X); antagonist, voltage clamp; Xenopus oocytes): -1.8 ± 0.1

CCCCCCCC/C=C\CCCCCCCC(=O)NCCc1ccc(O)c(O)c1
Hill coefficient (Transient receptor potential cation channel subfamily V member 1 (Trpv1, Mus musculus, UniProt Q704Y3, T557S); ion current, agonist, whole-cell patch clamp; T557S): 2.59 ± 0.33

Cc1ccc(NC(=O)/C=C/c2cccs2)cc1
Hill coefficient (Nicotinic acetylcholine receptor alpha9/alpha10; inhibitor; together with: ACh 10 µM): 1.4 ± 0.1

Nc1nc2c(ncn2[C@@H]2O[C@@H]3COP(=O)(O)O[C@H]3[C@H]2O)c(=O)[nH]1
Hill coefficient (Cone cGMP-gated channel (Morone saxatilis, UniProt Q3I0N1+Q3I0N2); channel current, agonist, suction electrode; cone outer segments; single cone shown, together with: 5 µM Ca2+): 2.5

Excerpt of the above:
Cc1ccc(NC(=O)/C=C/c2cccs2)cc1
Hill coefficient (Nicotinic acetylcholine receptor alpha9/alpha10; inhibitor; together with: ACh 10 µM): 1.4 ± 0.1

Nc1nc2c(ncn2[C@@H]2O[C@@H]3COP(=O)(O)O[C@H]3[C@H]2O)c(=O)[nH]1
Hill coefficient (Cone cGMP-gated channel (Morone saxatilis, UniProt Q3I0N1+Q3I0N2); channel current, agonist, suction electrode; cone outer segments; single cone shown, together with: 5 µM Ca2+): 2.5
